Measured values from different studies.
Parts stem from different laboratories: compare values within a part only. Positions count from the first letter of the parent shown.

Block 1 — method: protein-binding microarray; molecule type: double-stranded DNA, one strand shown; matrix: in vitro; tested at: not given; reading: higher = stronger binding
Target: Transcriptional repressor CTCF (CTCF, Homo sapiens, UniProt P49711, residues 1-727, full length assumed)
Setting: k-mer, scored over probes, only values ≥0.25
Residues (chain): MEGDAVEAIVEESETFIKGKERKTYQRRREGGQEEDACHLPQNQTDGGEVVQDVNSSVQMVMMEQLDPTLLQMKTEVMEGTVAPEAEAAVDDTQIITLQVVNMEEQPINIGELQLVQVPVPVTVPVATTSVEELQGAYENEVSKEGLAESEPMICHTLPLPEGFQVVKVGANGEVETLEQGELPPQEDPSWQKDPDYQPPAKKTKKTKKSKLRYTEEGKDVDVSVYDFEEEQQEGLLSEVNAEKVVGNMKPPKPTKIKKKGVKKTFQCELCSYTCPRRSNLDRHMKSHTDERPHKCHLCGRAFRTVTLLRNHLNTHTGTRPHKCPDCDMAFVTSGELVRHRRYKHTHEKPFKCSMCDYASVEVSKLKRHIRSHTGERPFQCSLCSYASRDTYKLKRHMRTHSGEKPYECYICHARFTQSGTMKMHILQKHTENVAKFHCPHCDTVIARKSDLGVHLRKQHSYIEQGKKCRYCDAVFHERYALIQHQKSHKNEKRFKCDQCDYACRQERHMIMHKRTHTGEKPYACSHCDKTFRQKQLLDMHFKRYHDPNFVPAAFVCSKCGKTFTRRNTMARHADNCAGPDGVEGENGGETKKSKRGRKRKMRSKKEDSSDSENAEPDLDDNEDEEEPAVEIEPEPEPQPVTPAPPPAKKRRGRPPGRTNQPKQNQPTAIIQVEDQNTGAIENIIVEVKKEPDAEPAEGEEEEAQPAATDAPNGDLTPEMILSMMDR
With `GTATAACA` the E-score was 0.359.
The E-score of `TCTTATAA` is reported as 0.267.
`ATACCACC` gave an E-score of 0.254.
`AATAAAAA` has an E-score of 0.326.
The E-score of `AGGGGGAT` is reported as 0.298.
`ATCATACA` gave an E-score of 0.308.
For `GATAACAC`, the E-score was 0.278.
`AATTAAGT` gave an E-score of 0.296.
The E-score of `TAGGCGCA` is reported as 0.266.
The E-score of `TATGTTAA` is reported as 0.284.
`TACGTAAA` gave an E-score of 0.329.
`TATACACA` gave an E-score of 0.307.
`ATAGGAAA` has an E-score of 0.25.
`GTGGCGTA` gave an E-score of 0.28.
`AGATTATA` has an E-score of 0.264.
`GCGCCTAC` gave an E-score of 0.285.
With `ACAAATTC` the E-score was 0.273.
The E-score of `ATTTAACG` is reported as 0.252.
`ATTACAAT` gave an E-score of 0.295.
For `ACTCGTAA`, the E-score was 0.28.
For `ACGTATAC`, the E-score was 0.255.
With `AAATAGTG` the E-score was 0.254.

Block 2 — method: DHFR PCA, deep sequencing; matrix: yeast; together with: (+)-ABA 0.39 µM; baseline: wild-type fitted maximum; reading: higher = stronger binding
Target: ABI1, truncated, D143A, DHFR fusion (Arabidopsis thaliana)
Setting: methotrexate growth selection, single substitutions
Starting sequence: PYL1, truncated, DHFR fusion (Arabidopsis thaliana); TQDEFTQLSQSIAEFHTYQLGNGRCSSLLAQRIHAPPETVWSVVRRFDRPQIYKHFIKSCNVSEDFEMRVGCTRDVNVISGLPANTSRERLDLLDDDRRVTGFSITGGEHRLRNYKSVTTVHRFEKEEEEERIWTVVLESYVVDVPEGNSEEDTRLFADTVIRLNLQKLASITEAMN
Under “relative binding score”, `N85Y` is recorded as 67%.
`E139T`: “relative binding score” 61%.
For `C72K`, “relative binding score” read 3.54%.
`R88D` — result for “relative binding score”: -0.803%.
`T135Q` — result for “relative binding score”: 2.83%.
Under “relative binding score”, `T101W` is recorded as -17.4%.
For `F47E`, “relative binding score” read 0.897%.
Under “relative binding score”, `L112K` is recorded as -15.1%.
Under “relative binding score”, `P37R` is recorded as 1.55%.
`R46L` — result for “relative binding score”: 3.2%.
Under “relative binding score”, `R123P` is recorded as 40.4%.
`V100D` — result for “relative binding score”: -15.7%.
`L138K` — result for “relative binding score”: -8.17%.
`E64R`: “relative binding score” 37%.
`T39Y`: “relative binding score” 11.8%.
For `I105F`, “relative binding score” read -12.8%.
Under “relative binding score”, `E89G` is recorded as 2.69%.
`V76N`: “relative binding score” -7.79%.
`E128L` — result for “relative binding score”: 26.8%.

Block 3 — method: protein binding microarray; molecule type: double-stranded DNA, one strand shown; matrix: in vitro; tested at: not given; baseline: not given; reading: higher = stronger binding
Target: Histone acetyltransferase KAT6A, winged helix 2, GST fusion (KAT6A, Homo sapiens, UniProt Q92794, residues 85-181)
Setting: 8-mer, flanks averaged, mean of 2 arrays, mostly near background
Construct (chain): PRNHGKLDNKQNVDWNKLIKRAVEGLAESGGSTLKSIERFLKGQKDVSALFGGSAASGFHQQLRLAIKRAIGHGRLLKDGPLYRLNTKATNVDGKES
`CACAAAGA` gave an E-score of 0.0876.
For `CCGGACCA`, the E-score was 0.0683.
With `ACGACTAC` the E-score was -0.3.
The E-score of `CAAGGGCA` is reported as -0.00241.
With `GGCAGACC` the E-score was 0.00974.
`CAATATAA` gave an E-score of 0.0669.
`CGCATCCC` has an E-score of -0.0492.
For `AGGTGCAT`, the E-score was -0.0759.
The E-score of `AATGAAAG` is reported as 0.0205.
`CTCCAGCC` gave an E-score of 0.0767.
The E-score of `CCGGAAGC` is reported as 0.23.
With `GCACTGCA` the E-score was 0.113.
With `CCTCGACA` the E-score was 0.0253.
For `CCTTCGGC`, the E-score was 0.0394.
With `CTGATCTA` the E-score was -0.0442.
`AGGGCTCG` has an E-score of 0.0922.
The E-score of `ATATCCTC` is reported as 0.0191.
For `ACATAGGC`, the E-score was -0.144.
The E-score of `CACTGTGC` is reported as 0.058.
For `TGGGGTAA`, the E-score was -0.0501.
The E-score of `GACTGCCC` is reported as -0.13.
With `CGAGTCAA` the E-score was 0.0296.
The E-score of `GATGCTAC` is reported as -0.038.
For `ACACCCCT`, the E-score was -0.122.

Block 4 — method: RNA Bind-n-Seq; molecule type: RNA; matrix: in vitro; tested at: 200 nM; setting: whole 134-nt RNA, ends assumed; together with: 150 mM LiCl; baseline: input library; reading: higher = stronger binding; library: 7-deaza-guanosine replaces G
Target: Ras GTPase-activating protein-binding protein 1, full length (G3BP1, Homo sapiens, UniProt Q13283)
Sequence of UniProt Q13283 (whole entry, looked up): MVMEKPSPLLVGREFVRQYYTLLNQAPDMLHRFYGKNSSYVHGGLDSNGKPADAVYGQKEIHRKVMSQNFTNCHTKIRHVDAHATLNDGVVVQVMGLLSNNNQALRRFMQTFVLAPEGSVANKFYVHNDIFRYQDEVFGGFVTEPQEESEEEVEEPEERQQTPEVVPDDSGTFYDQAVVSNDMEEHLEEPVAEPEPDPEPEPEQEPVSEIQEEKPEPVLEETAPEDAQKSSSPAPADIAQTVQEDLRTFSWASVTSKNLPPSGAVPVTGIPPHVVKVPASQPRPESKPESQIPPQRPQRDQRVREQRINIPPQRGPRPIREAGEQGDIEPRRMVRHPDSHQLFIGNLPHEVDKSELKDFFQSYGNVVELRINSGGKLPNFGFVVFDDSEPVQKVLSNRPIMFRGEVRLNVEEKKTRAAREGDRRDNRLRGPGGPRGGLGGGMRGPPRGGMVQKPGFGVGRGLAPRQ
With `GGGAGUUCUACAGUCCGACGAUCUUAUUCUGUGUGACACCUGCCCUCGUGCCUACCACCUCGUCUGCCUUGAUCCUGAGCUUGACCGGGCUCCAGAGGGCAAAUGGAGCUGCCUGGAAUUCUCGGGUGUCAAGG` the log2 enrichment was 1.21.
For `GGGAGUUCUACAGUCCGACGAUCCACAGACAACACGCACCCACACAGACACAGAGGGAAGGUGUUGGGAUGGGGACAGGGUGCACAGCAGGGCGGGGUAGGACCCCAGCCCCUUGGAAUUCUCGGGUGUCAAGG`, the log2 enrichment was -1.52.
The log2 enrichment of `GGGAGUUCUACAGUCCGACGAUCCAAGUCCUGUGCUACACAUCGUAUGUACCGAAUCGGGAAAGGGAAAGGGGAAAGGGAAAGUAUUAUGUUACGCCGUUCGGAUCUGCACUUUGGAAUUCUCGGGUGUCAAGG` is reported as -0.734.
`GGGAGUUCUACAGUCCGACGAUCCAAGUCCUGUGCUACACAUCGUAUGUACCGAAUCGGGUUUGGGGUUUGGGUUUGGGAAAGUAUUAUGUUACGCCGUUCGGAUCUGCACUUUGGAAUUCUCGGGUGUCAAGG` gave a log2 enrichment of -0.933.
`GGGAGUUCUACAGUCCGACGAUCGUCCUGUGCUACACAUCGUAUGUACCGAAUCGGGUUUUUUGGGUUUUUUGGUUUUUUGGAAAGUAUUAUGUUACGCCGUUCGGAUCUGCAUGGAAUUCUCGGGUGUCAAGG` has a log2 enrichment of -1.23.
With `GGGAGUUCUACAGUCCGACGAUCUCCUGUGCUACACAUCGUAUGUACCGAAUCGGGAAAAAAGGAAAAAAGGAAAAAAGGGGAAAGUAUUAUGUUACGCCGUUCGGAUCUGCAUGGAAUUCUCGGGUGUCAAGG` the log2 enrichment was -0.531.
`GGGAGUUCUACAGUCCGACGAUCCUCAAGUCCUGUGCUACACAUCGUAUGUACCGAAUCGGUGGUGGUUUUUUUGGAAAGUAUUAUGUUACGCCGUUCGGAUCUGCACUUCCAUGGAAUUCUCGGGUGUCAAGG` gave a log2 enrichment of 0.623.
`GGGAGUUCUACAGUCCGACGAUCCACAGACAACACGCUCCCACACAGACACAGAGGGAAGGGGUUGGGAUGGGGACAGGGUGCACAGCAGGGCGGGGUAGGACCCCAGCCCCUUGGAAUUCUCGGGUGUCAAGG` has a log2 enrichment of 0.78.
`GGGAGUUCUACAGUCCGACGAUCAAGGCACGUAAGUUUAAGCUUUUUUUUUUUUUAAGUUAAUGGGAAAAAUUUGAGACGCAAUACCAAUACUUAGGAUUUUGGUCUUGGUGUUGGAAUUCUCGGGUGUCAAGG` gave a log2 enrichment of 0.561.
`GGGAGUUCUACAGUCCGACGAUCUUUUCAAGGGCCGCUUGAAGAUGCCAUUGAAGAUGAGGAAGAAGAAUGUCCAUCAGAGGAAACAGACAUCAUCUCCAAAGGAGACUUUCCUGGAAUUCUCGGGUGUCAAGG` gave a log2 enrichment of -2.37.
With `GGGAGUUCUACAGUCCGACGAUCGUCCUGUGCUACACAUCGUAUGUACCGAAUCGGGCCCCCGGCCCCCGGGGCCCCCGGGGAAAGUAUUAUGUUACGCCGUUCGGAUCUGCAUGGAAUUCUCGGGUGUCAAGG` the log2 enrichment was -1.44.
